Experimental data from different studies.
Each line is one published result; not all experiments were run side by side.

Cn1ncc2cc(-c3cncc(Cl)c3N3CCC4(CCNC4=O)CC3)ccc21
log2 fold change (LS174T; gene expression, microarray, item: ARRDC3 mRNA; concentration not given, 4 h; reference: untreated cells): 1.41

Nc1ncc(-c2cc(-c3cnn(CC(F)(F)F)c3)ncc2F)nc1C(=O)NC1CNCC(F)C1 (stereo not shown)
remaining binding (BUB1; KINOMEscan; 1 µM; reference: DMSO control): 100%

CN1CCCNC(=O)c2cccc(c2)C(=O)NCCCN(C)CCCNc2cccc3c2C(=O)c2cccc(c2C3=O)NCCC1
log2 fold change (SAS; RNA-Seq, item: HUS1 mRNA; 1 µM, 6 h; reference: untreated cells): -0.858

C=CC(=O)N1[C@@H](c2ccc3c(c2)OCO3)c2[nH]c3ccccc3c2C[C@H]1C(=O)N1CCN(C)CC1
relative co-enrichment (human cyclin E1 N112C-3xFLAG:CDK2; co-IP with TMT proteomics, item: ATAD3A; concentration not given, Q9NVI7; reference: wild type DMSO): 123%

COC1CN([C@H]2CC[C@H]([C@@]3(C)Oc4c(Cl)cc(C(=O)NCc5c(SC)cc(C)[nH]c5=O)c(C)c4O3)CC2)C1
log2 fold change (RNA-seq, item: NOS1AP; human, whole blood; dose not given, 24 h; reference: pretreatment baseline): 2.42

CCOC(=O)NN
normalised absorbance (hydrazine ligation kinetics, absorbance; concentration not given, 25 s, added: 2-formylphenylboronic acid): 0.772

CC(C)c1ccc(N(C)c2ccc3c(c2)OCC[C@H]3CNc2cnccc2C(=O)O)cc1
IC50 (BT-474; cell viability, CellTiter-Glo; 7 days): ≥ 10000 nM

C=C(NC(=O)c1csc(-c2nc3c(cc2O)-c2nc(cs2)C(=O)NC(C(C)O)C(=O)NC(=C(C)OC)c2nc(cs2)C(=O)NC2c4nc(cs4)C(=O)NC(COC(=O)c4c5c6c(cccc6n4O)COC(=O)C(OC4CC(C)(O)C(N(C)C)C(C)O4)C2OC5)c2nc-3cs2)n1)C(N)=O (stereo not shown)
bacterial load (Streptococcus pneumoniae; -25, immunocompromised mice, lung infection, lung; 16 mg/kg/day once daily, 24 h post-dose): 6.6 log CFU/g

CNS(=O)(=O)Nc1nccc(Cc2c(C)c3ccc(Oc4ncccc4F)cc3oc2=O)c1F
IC50 (OCI-Ly10; cell viability; 7 days): 3.05 nM

CN1CCC[C@]1(C)/C=C/S(=O)(=O)NC(=O)Nc1c2c(cc3c1CCC3)CCC2
IL-18 inhibition (human, whole blood ex vivo; 12.5 mg twice daily, day 1, 3 h, multiple ascending dose, added: LPS and ATP): 113%

CCN(CC)CC(=O)Nc1cccc(-n2cc(-c3ccc4ccc(-c5cn(-c6cccc(NC(=O)CN(CC)CC)c6)nn5)cc4c3)nn2)c1
fold regulation (RCC4; PCR angiogenesis array, item: CXCL10; 5 x IC50, 4 h, normoxia; reference: untreated): -1.1

C=CC(=O)Nc1cccc(Cn2ncc3cnc(Nc4cnn(CCOC)c4)nc32)c1
percent of control (NDR1 human; binding, KINOMEscan; 100 nM; lower = stronger binding): 100%

Cc1ncsc1-c1ccc(C(C)NC(=O)C2CC(O)CN2C(=O)C(NC(=O)CCCCCCCCCCN2CCCC(Nc3ncc(Cl)c(Nc4ccccc4S(=O)(=O)C(C)C)n3)C2)C(C)(C)C)cc1 (stereo not shown)
log2 fold change (22Rv1; RNA-seq, item: SLC16A13 mRNA; concentration not given; reference: DMSO): -3.25

Repeated from above:
C=C(NC(=O)c1csc(-c2nc3c(cc2O)-c2nc(cs2)C(=O)NC(C(C)O)C(=O)NC(=C(C)OC)c2nc(cs2)C(=O)NC2c4nc(cs4)C(=O)NC(COC(=O)c4c5c6c(cccc6n4O)COC(=O)C(OC4CC(C)(O)C(N(C)C)C(C)O4)C2OC5)c2nc-3cs2)n1)C(N)=O (stereo not shown)
bacterial load (Streptococcus pneumoniae; -25, immunocompromised mice, lung infection, lung; 16 mg/kg/day once daily, 24 h post-dose): 6.6 log CFU/g
